Experimental data collected from several papers.
Every numbered part comes from another study and shows a few of its results, in no order. Substitutions count along the parent as printed.

Study 1 — technique: protein-binding microarray; form: double-stranded DNA, one strand shown; matrix: in vitro; concentration: not given; direction: higher = stronger binding
Target: Max dimerization protein 1, bHLH-zipper, MAX partner unstated (MXD1, Homo sapiens, UniProt Q05195, residues 56-136)
Notes: k-mer, scored over probes, only values ≥0.25
Target sequence (chain): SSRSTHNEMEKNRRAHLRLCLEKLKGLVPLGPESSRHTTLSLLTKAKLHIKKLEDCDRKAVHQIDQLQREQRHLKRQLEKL
Strand	E-score
AGTAGGGG	0.259
GCGTGGAC	0.377
GCGTGTCA	0.388
GATCACGC	0.276
GCGTGCTA	0.348
ACGTGTCA	0.315
GCGTGCGA	0.362
AGGCATGG	0.425
CCAGGCGG	0.263
GGGGGGGA	0.344
CATATGCG	0.323
ACATGCCA	0.381

Study 2 — technique: RNA Bind-n-Seq; form: RNA; matrix: in vitro; concentration: 90 pmol; notes: 4-mer, random 30-nt RNA, single round; relative to: input library; direction: higher = stronger binding
Target: Eukaryotic initiation factor 4A-I (EIF4A1, Homo sapiens, UniProt P60842, residues 1-406, full length assumed)
Chain of UniProt P60842 (whole entry, looked up): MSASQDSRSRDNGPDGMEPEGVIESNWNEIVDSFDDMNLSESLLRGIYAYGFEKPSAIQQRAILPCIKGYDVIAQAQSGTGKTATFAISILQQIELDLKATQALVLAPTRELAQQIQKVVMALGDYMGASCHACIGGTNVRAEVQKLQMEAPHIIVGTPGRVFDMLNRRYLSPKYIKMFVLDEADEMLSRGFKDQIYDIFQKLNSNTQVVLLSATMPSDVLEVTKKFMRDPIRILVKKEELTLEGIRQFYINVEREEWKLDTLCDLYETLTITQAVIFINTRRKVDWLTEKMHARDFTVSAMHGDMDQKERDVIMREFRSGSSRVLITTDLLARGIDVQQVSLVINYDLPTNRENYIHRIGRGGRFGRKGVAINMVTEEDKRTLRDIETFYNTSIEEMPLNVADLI
With: 3 µM iPr-DMDA-PatA, 2 mM ADP, 2 mM phosphate
Strand	4-mer enrichment [fold]
GUUU	1.01
AUCA	1.23
UUGU	0.977
UGGG	0.635
CAUA	1.15
GCCG	0.686
GUCG	0.833
CAAC	1.1
CUCU	0.919
CUCG	0.872
AAAG	1.4
GUUG	0.844
ACUG	0.986
UAAA	1.52
ACGA	1.31
UAGU	1.09

Study 3 — technique: RNA Bind-n-Seq; form: RNA; matrix: in vitro; concentration: 365 nM; relative to: no-protein control; direction: higher = stronger binding
Target: RNA binding protein fox-1 homolog 2, RRM domain, GST-SBP tag (RBFOX2, Homo sapiens, UniProt O43251-10, residues 100-194)
Notes: natural RNA segment, single round, ends assumed
All sequences stand within: GGGAGUUCUACAGUCCGACGAUC … UGGAAUUCUCGGGUGCCAA
Construct (chain): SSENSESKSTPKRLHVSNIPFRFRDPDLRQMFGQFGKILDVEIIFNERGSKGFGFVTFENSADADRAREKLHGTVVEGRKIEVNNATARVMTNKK
Strand	RBNS enrichment (R)
GAGGAGUCACUGUUCCUUUUUUUAGGUUAGAAAUUAACAGCAGGGAAAUGCCAUCUUAUUACCUGAGACGACCAGCACUGGGAGUUAGGUACGGUCUGAAGUUAUGUCUA	0.471
UCAUUCAGUCAGAAUUUAGGAUUCAGUCAUUGGCAGGUAUCUAUGCAUUCGUAGAACUUCUAAGGGUCCCAGGAUCACUUUUAAGGGAUUUUUUUUUUAUAGUUUAAAUA	0.593
AGAUUCCUUUCCCUGCCUUCUCCCAUACAUUCCAAAAGGAAGUUCAACAGUAAGCAGCACCUCCAAGACUGUCUCCUUUUGGCCAAUAUCAUAAGAUGGACGCCAUAAUC	0.27
AGACUCUAGAAAAAAGGGCUGAGGGGAAGCAAGACGUAAAGAGUUUUCAUCCUGUAUCACAGUGUUUUUAUUGCUCGCCCAGACACCAUGUGCAAUAAGACUGGUGUUCG	0.339
AAAAUAUAUCGUCCUAACAGUUAAAUUAACAAUCAAUCCAUAAAGUCCUAUAUCUUCAUUCAGCAACCCAAAUAUUACAUACAUUUCCAGAAUUUUCUUGAUUGUUACUU	1.27
UGCUGAUUCCACAGCAUGCAGCCUGGUAGGGGAAGGAAAAUAAAAGGGUGUGAAGAAGGAAUAGUUUUAUAAUCUCGGAAGAUGAUACCAAGAGCAGAGGCAACAAAUAG	12
UUGCGGUGCUGCCGUCCUUUUGGGUUCUUGAUUUCUGGAUACAUGUAGCUUUGCCAGAUAUGUACUUAGAGAUAUCAACCGUGUUAAUAAGCCCAUUAAUGUGUAACAAC	0.405
UCUUUGUAAUUAUUUCUUUAGUUUAAUUAACCUUUUGGUUGUUUGUGCAAUAUUAUAUAUUUUAAAUUAUAAUGCAUCUCCCCAGAGUAUUUUGUAGCUGGGAAAAGAAA	4.12
GUUGACCCCAUGUUUCAGAUCCUGGAACAAGCAUCCAAGAGUAACAGAACUUUCUGAGCUGGCAAAGGCUUAAACAUCUGCCUGGGUUCAGCAGGCAACCUGCCCGUCUG	0.417
GAUGUUUGCUUGUCUGCUUUCUCUUUAUAGUACAUGAACAGUUCAGCCUUAGACUAUGUAACUGUUUUCUUAUCUUUAGCUGAAAAUGGGGGGAGGGCAUUCUGUACUGC	1.33
AGAGCCCUUCUCGUUUCUUUUUUAAACUAAUCACCAUAUUGUAAAUUUCAGGGUUUUUUUUUUUUUGUUUAAGCUGACUCUUUGCUCUAAUUUUGGAAAAAAAGAAAUGU	0.745
AGGUAAACGGAAGGGGCGUCGUUGUCUUUAAGGUGAGGCGGCCAAGCACUGCUCCGUAUAUAAGUUAAUUUGUAAAUCCGGAGCAGACGGCAUGCUAAGUCCUGUAAUUC	2.68

Study 4 — technique: universal PBM; form: double-stranded DNA, one strand shown; matrix: in vitro; concentration: not given; direction: higher = stronger binding
Target: Sal-like protein 4, full length isoform B (SALL4, Homo sapiens, UniProt Q9UJQ4-2, residues 1-616)
Notes: 8-mer, flanks averaged, mean of replicates
Strand	E-score
ATTGTGCA	0.0857
CAACCCAG	-0.205
ATTGGAGG	-0.0454
CGACGGCG	-0.345
CCCGACAA	0.017
GCCGACGC	-0.225
GCCCCCCA	-0.429
AGACTAAG	-0.0287
CGTACAGA	0.122
CCACACCC	-0.191
GCCACAAC	0.0935
AGTGTCAC	-0.0624
ACTTGACC	-0.0482
AGCGTTGC	-0.192
AAACCTAC	0.073
CATAACCG	0.129
GATGGGGA	-0.202

Study 5 — target: CCNE1, cyclin fold, Cln2 fusion (human); technique: yeast growth competition, sequencing; matrix: yeast; notes: strong parent motif; relative to: not given; direction: higher = stronger binding
Starting sequence: INSM1 docking peptide (human); PKAIRKLHFEDEV; partner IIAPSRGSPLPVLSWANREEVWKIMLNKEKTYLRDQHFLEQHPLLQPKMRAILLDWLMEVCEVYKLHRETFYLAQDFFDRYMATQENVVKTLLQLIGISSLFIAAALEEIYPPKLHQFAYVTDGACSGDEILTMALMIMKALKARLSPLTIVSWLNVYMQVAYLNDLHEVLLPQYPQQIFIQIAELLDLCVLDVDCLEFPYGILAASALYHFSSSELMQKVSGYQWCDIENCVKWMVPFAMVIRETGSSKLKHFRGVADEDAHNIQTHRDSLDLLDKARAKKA
Change	normalised enrichment score
PKAIVKLHFEDEV [R5V]	0.262
PKAIRGLHFEDEV [K6G]	0.243
PKAIRKLLFEDEV [H8L]	5.27
PKAIRKLEFEDEV [H8E]	4.94
PKAIRKLHHEDEV [F9H]	-0.086
PKAIRKLHGEDEV [F9G]	-0.0478
PKAIRKLHVEDEV [F9V]	0.24
PKAIRKLHFECEV [D11C]	3.59
PKAIRKLHFEYEV [D11Y]	3.69
PKAIRKLWFEDEV [H8W]	4.65
PKNIRKLHFEDEV [A3N]	0.182
PKAIRTLHFEDEV [K6T]	2.39
PKFIRKLHFEDEV [A3F]	2.62

Study 6 — technique: protein binding microarray; form: double-stranded DNA, one strand shown; matrix: in vitro; concentration: not given; relative to: not given; direction: higher = stronger binding
Target: Histone acetyltransferase KAT6A, winged helix 2, GST fusion (KAT6A, Homo sapiens, UniProt Q92794, residues 85-181)
Notes: 8-mer, flanks averaged, mean of 2 arrays, mostly near background
Residues (chain): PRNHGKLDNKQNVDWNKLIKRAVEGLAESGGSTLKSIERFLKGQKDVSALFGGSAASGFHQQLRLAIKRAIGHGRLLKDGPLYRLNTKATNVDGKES
Strand	E-score
ACAATCAA	0.000135
GTGCACAA	-0.0738
GCACCAAC	0.182
TTATGAAA	0.0393
CATTTGTC	-0.0654
GCGCTGGA	0.167
CGTCGGCC	0.209
ACGAAGTG	0.135
ATTGGTTA	0.11
ATCACGAT	-0.165
GGTCTAAC	-0.053
ACTAACCA	0.125
ACGTTGTC	-0.213
ATACCAGC	-0.125
GCAATAGA	-0.246
AACGGAGA	0.062
GGGGGCAA	0.132
ACGCACGC	0.223
ATGGATAC	0.0615

Study 7 — technique: RNAcompete; form: RNA; matrix: in vitro; concentration: 20 nM; notes: 7-mer, probes averaged, single round; relative to: mean of 7-mers; direction: higher = stronger binding
Target: PABPC1L2, full length, GST fusion (mouse, UniProt A0ABA7IW68)
Residues (chain): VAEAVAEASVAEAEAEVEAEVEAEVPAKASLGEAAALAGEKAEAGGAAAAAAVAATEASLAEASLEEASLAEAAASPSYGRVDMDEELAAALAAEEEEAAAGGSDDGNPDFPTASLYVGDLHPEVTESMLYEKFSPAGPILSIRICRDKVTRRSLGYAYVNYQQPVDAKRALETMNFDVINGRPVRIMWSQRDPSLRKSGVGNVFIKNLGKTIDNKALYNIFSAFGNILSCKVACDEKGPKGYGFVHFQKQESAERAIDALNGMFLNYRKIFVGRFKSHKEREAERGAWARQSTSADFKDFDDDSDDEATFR
Strand	7-mer Z-score
AGAAUGU	-0.184
UUUAUCC	-0.282
AUGAUUA	-0.161
ACAGGUC	-0.0736
AACCUUG	-0.208
AGUGCUA	0.102
UUACCGU	-0.17
GAGCACU	-0.206
UGGACAU	-0.0863
UUAACCG	-0.248
AUGCGGC	-0.0246
CCAGCCC	-0.407
GUGACGG	0.137
ACAACGU	-0.0518
UGCUGAC	-0.11
ACUUCUA	-0.13
AGGGUUU	-0.148
UGACAUU	-0.0953
UGUUAUA	-0.307
AACAAUA	1.05
AACCGCU	-0.177

Study 8 — target: UBE2T UBC core domain (UniProt Q9NPD8); technique: yeast two-hybrid; matrix: yeast; notes: mostly zero background; relative to: not given; direction: higher = stronger interaction
B1: TRIM5 RING domain (UniProt Q9C035); chain ILVNVKEEVTCPICLELLTQPLSLDCGHSFCQACLTANHKKSMLDKGESSCPVCRISYQPENIRP
B2: RNF208 RING domain (UniProt Q9H0X6); chain SSAAAGEPLECPTCGHSYNVTQRRPRVLSCLHSVCEQCLQILYESCPKYKFISCPTCRRETVLFTDYG
B3: VPS41 RING domain (UniProt P49754); chain KGVLVDEENICESCLSPILPSDAAKPFSVVVFHCRHMFHKECLPMPSMNSAAQFCNICSAKNRGPGSAI
B4: RC3H1 RING domain (UniProt Q5TC82); chain QAPQWTDFLSCPICTQTFDETIRKPISLGCGHTVCKMCLNKLHRKACPFDQTTINTDIELL
B5: NEURL1 RING domain (UniProt O76050); chain VTPGLGQWSDECTICYEHAVDTVIYTCGHMCLCYACGLRLKKALHACCPICRRPIKDIIKT
B6: SH3RF2 RING domain (UniProt Q8TEC5); chain DDLTLLDLLECPVCFEKLDVTAKVLPCQHTFCKPCLQRVFKAHKELRCPECRTPVFSNIEAL
Construct (chain): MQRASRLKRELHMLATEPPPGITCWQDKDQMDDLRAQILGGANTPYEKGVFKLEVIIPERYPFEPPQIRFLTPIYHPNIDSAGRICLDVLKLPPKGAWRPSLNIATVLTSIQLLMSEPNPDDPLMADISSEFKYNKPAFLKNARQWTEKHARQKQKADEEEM
Sequence	lacZ reporter activity
B1 (TRIM5 RING domain)	0
PAELEVQASECVVCLEREAQMIFLNCGHVCCCQQCCQPLRTCPLCRQDIAQRLRIY (LRSAM1 RING domain (UniProt Q6UWE0))	0
DHGAVGQEMCCPICCSEYVKGEVATELPCHHYFHKPCVSIWLQKSGTCPVCRCMFPPPL (PJA1 RING domain (UniProt Q8NG27))	0
B2 (RNF208 RING domain)	0
QVDKAVFHMQSVKCLKCQEQKRAVLPCQHAALCELCAEGSECPICQPGRAHTLQS (UNK RING domain (UniProt Q9C0B0))	0
B3 (VPS41 RING domain)	0
VEPSEENSKDCVVCQNGTVNWVLLPCRHTCLCDGCVKYFQQCPMCRQFVQESFALC (CGRRF1 RING domain (UniProt Q99675))	0
B4 (RC3H1 RING domain)	0
B5 (NEURL1 RING domain)	0
B6 (SH3RF2 RING domain)	0

For quick reference, copied from above (study 4):
Strand	E-score
GCCGACGC	-0.225
GCCCCCCA	-0.429
AGACTAAG	-0.0287
CGTACAGA	0.122
CCACACCC	-0.191
GCCACAAC	0.0935
AGTGTCAC	-0.0624
ACTTGACC	-0.0482
